Published values collected from several papers.
Protocols differ between the studies behind these lines.
Cell line: SF-268

Structure (SMILES)	test	conditions	scale	measurement	result
CSc1nc(-c2ccc(Cl)cc2)c2c(NC(=O)c3ccccc3)nnc-2[nH]1	SRB	10 µM, NCI60 single-dose screen	baseline: untreated	cell growth	101%
CCN(CC)c1ccc(C=NNC(=O)CSc2nc3ccccc3c(=O)n2Cc2ccc(S(N)(=O)=O)cc2)c(O)c1	NCI five-dose screen			TGI	> 100 µM
CCCN1CCN(c2ccc3[nH]c(-c4ccc5[nH]c(-c6ccc(OCC)c(OCC)c6)nc5c4)nc3c2)CC1	SRB	10 µM, 48 h		growth percent	15.8%
O=C(/C=C/C=C/C=C/C1CCCCC1)NC1=C[C@@](O)(/C=C/C=C/C=C/C(=O)NC2=C(O)CCC2=O)[C@@H]2O[C@@H]2C1=O	cell growth, CellTiter-Glo	78 h		GI50	20.8 µM
CCCCN1CCN(c2ccc3[nH]c(-c4ccc5[nH]c(-c6cc(OC)c(OC)c(OC)c6)nc5c4)nc3c2)CC1	SRB	10 µM, 48 h		growth percent	71.8%
O=C1NC(=NCc2cccs2)S/C1=C\c1ccc2ncccc2c1	MTS	NCI60 panel		IC50	> 10 µM
O=C(Nc1nnc2n3c(nc(-c4ccc(Cl)cc4)c1-2)SCC3=O)c1ccccc1	SRB	10 µM, NCI60 single-dose screen	baseline: untreated	cell growth	92.8%
C#C[C@@]1(O)[C@@H](CO)O[C@@H](n2cc(F)c3c(N)ncnc32)[C@@H]1O	SRB	NCI-60 screen		TGI	78.3 µM
CCCCN1CCN(c2ccc3[nH]c(-c4ccc5[nH]c(-c6ccc(OCC)cc6)nc5c4)nc3c2)CC1	SRB	10 µM, 48 h		growth percent	77.1%
O=C(Nc1nnc2n3c(=S)[nH][nH]c3nc(-c3ccc(Cl)cc3)c1-2)c1ccccc1	SRB	10 µM, NCI60 single-dose screen	baseline: untreated	cell growth	103%
CCOc1ccc(-c2nc3cc(-c4nc5cc(N6CCN(C)CC6)ccc5[nH]4)ccc3[nH]2)cc1OCC	SRB	10 µM, 48 h		growth percent	19.3%
NNc1nc(-c2ccc(Cl)cc2)c2c(NC(=O)c3ccccc3)nnc-2[nH]1	SRB	10 µM, NCI60 single-dose screen	baseline: untreated	cell growth	109%
O=C1NCCc2[nH]c(-c3ccncc3)cc21	MTS	NCI60 panel		IC50	> 10 µM
Cc1n[nH]c2nc(-c3ccc(Cl)cc3)c3c(NC(=O)c4ccccc4)nnc-3n12	SRB	10 µM, NCI60 single-dose screen	baseline: untreated	cell growth	116%
CCCN1CCN(c2ccc3[nH]c(-c4ccc5[nH]c(-c6ccc(C(F)(F)F)cc6)nc5c4)nc3c2)CC1	SRB	10 µM, 48 h		growth percent	-70.2%
Cn1cncc1C1=CN(c2ncnc3[nH]cnc23)CCS1		CNS cancer		TGI	64.6 µM
CCOC(=O)CSc1nc(-c2ccc(Cl)cc2)c2c(NC(=O)c3ccccc3)nnc-2[nH]1	SRB	10 µM, NCI60 single-dose screen	baseline: untreated	cell growth	97.4%
C#C[C@@]1(O)[C@@H](CO)O[C@@H](n2ccc3c(N)ncnc32)[C@@H]1O	SRB	NCI-60 screen		TGI	26.1 µM
CCCN1CCN(c2ccc3nc(-c4ccc5nc(-c6cc(OC)ccc6OC)[nH]c5c4)[nH]c3c2)CC1	SRB	10 µM, 48 h		growth percent	106%

For quick reference, copied from above:
Structure (SMILES)	test	conditions	scale	measurement	result
CCCN1CCN(c2ccc3[nH]c(-c4ccc5[nH]c(-c6ccc(OCC)c(OCC)c6)nc5c4)nc3c2)CC1	SRB	10 µM, 48 h		growth percent	15.8%
CSc1nc(-c2ccc(Cl)cc2)c2c(NC(=O)c3ccccc3)nnc-2[nH]1	SRB	10 µM, NCI60 single-dose screen	baseline: untreated	cell growth	101%
CCOc1ccc(-c2nc3cc(-c4nc5cc(N6CCN(C)CC6)ccc5[nH]4)ccc3[nH]2)cc1OCC	SRB	10 µM, 48 h		growth percent	19.3%
